Results pooled from the literature.
Lines come from different studies, so protocols differ. “And” joins repeats or separate records; there may be more than shown.

Compound	target or system	test	test system	conditions	scale	endpoint	value
COC1CN([C@H]2CC[C@H]([C@@]3(C)Oc4c(Cl)cc(C(=O)NCc5c(SC)cc(C)[nH]c5=O)c(C)c4O3)CC2)C1		RNA-seq, measured: WDR26 mouse homolog	mouse, HT-1376 xenograft, whole blood	dose not given	reference: vehicle	log2 fold change	2.03
C=C(NC(=O)c1csc(-c2nc3c(cc2O)-c2nc(cs2)C(=O)NC(C(C)O)C(=O)NC(=C(C)OC)c2nc(cs2)C(=O)NC2c4nc(cs4)C(=O)NC(COC(=O)c4c5c6c(cccc6n4O)COC(=O)C(OC4CC(C)(O)C(N(C)C)C(C)O4)C2OC5)c2nc-3cs2)n1)C(N)=O (stereo not shown)			female cynomolgus monkey, plasma	intravenous, 3 mg/kg, single dose, infusion		Cmax	19600 ng/mL
Cc1ncsc1-c1ccc(C(C)NC(=O)C2CC(O)CN2C(=O)C(NC(=O)CCCCCCCCCCN2CCCC(Nc3ncc(Cl)c(Nc4ccccc4S(=O)(=O)C(C)C)n3)C2)C(C)(C)C)cc1 (stereo not shown)	22Rv1	RNA-seq, measured: MTRES1 mRNA		concentration not given	reference: DMSO	log2 fold change	-1.19
CCN(CC)CC(=O)Nc1cccc(-n2cc(-c3ccc4ccc(-c5cn(-c6cccc(NC(=O)CN(CC)CC)c6)nn5)cc4c3)nn2)c1	RCC4	PCR angiogenesis array, measured: CXCL1		5 x IC50, 4 h, normoxia	reference: untreated	fold regulation	-1.43
Cc1nc(NCCOCCOCCNc2ncc(C(=O)NC3=NN(c4ccc(Cl)c(Cl)c4)CC3)c(C)n2)ncc1C(=O)NC1=NN(c2ccc(Cl)c(Cl)c2)CC1	K562	cell growth or viability, ATP luminescence		72 h		EC50	69 nM
CNS(=O)(=O)Nc1nccc(Cc2c(C)c3ccc(Oc4ncccc4F)cc3oc2=O)c1F	DMS-53	cell viability		7 days		IC50	> 1000 nM
CN1CCCNC(=O)c2cccc(c2)C(=O)NCCCN(C)CCCNc2cccc3c2C(=O)c2cccc(c2C3=O)NCCC1	SAS	RNA-Seq, measured: SMIM19 mRNA		1 µM, 6 h	reference: untreated cells	log2 fold change	0.842
CO[C@@H]1[C@@H](OC(N)=O)[C@@H](O)[C@H](Oc2ccc3c(O)c(NC(=O)c4ccc(O)c(CC=C(C)C)c4)c(=O)oc3c2C)OC1(C)C	DLD-1 BRCA2-/-			150 µM, replicate 2		colony count	0.1
Nc1ncc(-c2cc(-c3cnn(CC(F)(F)F)c3)ncc2F)nc1C(=O)NC1CNCC(F)C1 (stereo not shown)	CHEK2 human	KINOMEscan		1 µM	reference: control	remaining binding	8%
COc1ccccc1-c1ccncc1C(=O)Nc1nnc(OCc2ccc(Cl)cc2)s1	MDA-MB-436			0.375 µM		colony count	14 and 15 and 13 and 16
CC(C)c1ccc(N(C)c2ccc3c(c2)OCC[C@H]3CNc2cnccc2C(=O)O)cc1	DMS-273	cell viability, CellTiter-Glo		7 days		IC50	22.2 nM
Cn1ncc2cc(-c3cncc(Cl)c3N3CCC4(CCNC4=O)CC3)ccc21	LS174T	gene expression, microarray, measured: CYP27B1 mRNA		concentration not given, 4 h	reference: untreated cells	log2 fold change	-1.47
C=CC(=O)Nc1cccc(Cn2ncc3cnc(Nc4cnn(CCOC)c4)nc32)c1	MAP4K4 human	binding, KINOMEscan		100 nM	lower = stronger binding	percent of control	78%
